Earlier results as cited in several papers.
Compare with care: the assays were run in different laboratories.

Structure (SMILES) | notes | quantity | result
ClC1=C(Cl)[C@]2(Cl)[C@@H]3[C@@H]4C[C@@H]([C@H]5O[C@@H]45)[C@@H]3[C@@]1(Cl)C2(Cl)Cl | – | log Kow | 6.2
c1ccc2c(c1)Cc1ccccc1-2 | experimental mean or OPERA estimate | log Kow | 4.18
ClC(Cl)=C(c1ccc(Cl)cc1)c1ccc(Cl)cc1 | – | log Kow | 6.51
C[Si](C)(C)O[Si](C)(C)O[Si](C)(C)C | – | log Kow | 6.79
CCC(C)(c1ccc(O)cc1)c1ccc(O)cc1 | – | log Kow | 4.13
CN1CC[C@]23c4c5ccc(O)c4O[C@H]2[C@@H](O)CC[C@H]3[C@H]1C5 | – | log partition coefficient | 1.13
Cn1c(N)nc2c3cccnc3ccc21 | – | log Kow | 1.47
COc1ccc2c3c1O[C@H]1[C@@H](O)CC[C@H]4[C@@H](C2)N(C)CC[C@@]341 | – | log partition coefficient | 1.25
Nc1cnn(-c2ccccc2)c(=O)c1Cl | – | log Kow | 1.14
c1cc2ccc3cccc4ccc(c1)c2c34 | experimental mean | log Kow | 4.88
Fc1ccc(Oc2ccnc3cc(Cl)cc(Cl)c23)cc1 | – | log Kow | 4.66
Oc1ccc(Cc2ccc(O)cc2)cc1 | – | log Kow | 2.92

A few entries again:
Structure (SMILES) | notes | quantity | result
Oc1ccc(Cc2ccc(O)cc2)cc1 | – | log Kow | 2.92
